Results from different studies.
Each line is one published result; not all experiments were run side by side. Values joined by “and” are separate records of one study, mostly repeats; a detail may differ.
Target: Serine/threonine-protein kinase 16 (STK16, Homo sapiens, UniProt O75716)

| Compound | assay | test system | setting | how to read | endpoint | result |
| --- | --- | --- | --- | --- | --- | --- |
| NC(=O)C[C@H]1CCc2sc3ncnc(O[C@H]4CC[C@H](N5CCOCC5)CC4)c3c21 | enzyme activity, inhibitor |  | 10 µM |  | inhibition | 4% |
| CCN1CCN(Cc2ccc(C(=O)Nc3ccc(C)c(NCc4cnc5[nH]ccc5c4OC)c3)cc2C(F)(F)F)CC1 | binding, competition with immobilised ligand |  | 1 µM |  | remaining binding | 100% |
| Cc1cnc2nc1Nc1cccc(c1)COC/C=C/COCc1cc(ccc1OCCN1CCOCC1)N2 | binding, competition with immobilised ligand |  | 0.1 µM |  | remaining binding | 16% |
| CNC(=O)C1CCN(c2cc(C)c(F)cc2NC(=O)c2ccc(-c3cc(O)ccc3C)c(C)c2)CC1 | binding, competition with immobilised ligand |  | 1 µM |  | remaining binding | 100% |
| Nc1ncc2c(n1)-c1c([nH]c3ccc(C4=CCOCC4)cc13)CCC2 | binding, competition with immobilised ligand |  | 1 µM |  | remaining binding | 29% |
| Cc1ccc(C(=O)Nc2ccc(CN3CCN(C)CC3)c(C(F)(F)F)c2)cc1C#Cc1cnc2cccnn12 | target engagement, NanoBRET | human cells |  |  | upper asymptote | 1.9 |
| Cc1cccc(O[C@H]2CCC[C@@H](C(C)CNCc3ccncc3)C2)c1 (relative stereo) | enzyme activity, inhibitor |  | 1 µM |  | inhibition | 0% |
| COc1c(Cl)cccc1Nc1c(-c2ccncc2C#C[C@@]2(C)CCCN2C(=O)/C=C/CN(C)C)[nH]c2c1C(=O)NCC2 | binding, competition with immobilised ligand |  | 3 µM |  | remaining binding | 84% |
| C=CC(=O)Nc1cccc(-c2cnc3[nH]cc(C(=O)NC(C)(C)C)c3n2)c1 | kinase activity |  | 0.1 µM |  | inhibition | -1% and 5% |
| COCC12C(=O)NC3C4(C(OC)CC1O)C1CC5(O)C(OC)C(O)C(OC(C)=O)(C1C5OC(=O)c1ccccc1)C3(O)C(OC)C24 (centres unmarked) | kinase activity, inhibitor, ProQinase kinase profiling |  | 25 µM | relative to: control | remaining activity | 91% and 98% |
| COc1cc(Nc2nc(C)cc(-c3cnn4nc(OC)ccc34)n2)cc(C(F)(F)F)c1 | binding, competition with immobilised ligand |  | 1 µM |  | remaining binding | 81% |
| CN1CCN(Cc2ccc(-c3ccc(CO[C@H]4CCC[C@@H]4NC(=O)c4cc(-c5cnn(C)c5)cnc4N)cc3)cc2)CC1 | enzyme activity, inhibitor |  | 0.1 µM |  | inhibition | -7% |
| Cc1ccc(-c2c(/C=C(\C#N)C(=O)NC(C)C)n(CCCO)c3ncnc(N)c23)cc1 | cell-free assay, competition with immobilised ligand |  | 1 µM |  | remaining binding | 22% |
| CNC1C[S+]2CC[S+]3CC[S+](C1)[Ru-4]321([N]=C=S)[n]2c3ccc(OC)cc3c3c4c(c5cc(F)c[n+]1c5c32)C(=O)NC4=O (centres unmarked) | KinomeScan |  | 0.1 µM | relative to: untreated | remaining binding | 84% |

For quick reference, copied from above:
| Compound | assay | test system | setting | how to read | endpoint | result |
| --- | --- | --- | --- | --- | --- | --- |
| C=CC(=O)Nc1cccc(-c2cnc3[nH]cc(C(=O)NC(C)(C)C)c3n2)c1 | kinase activity |  | 0.1 µM |  | inhibition | -1% and 5% |
| Cc1ccc(-c2c(/C=C(\C#N)C(=O)NC(C)C)n(CCCO)c3ncnc(N)c23)cc1 | cell-free assay, competition with immobilised ligand |  | 1 µM |  | remaining binding | 22% |
